# Experimental data gathered from unrelated publications.
# Compare with care: the assays were run in different laboratories. Numbers after ± are the reported error.
# U2AF2: U2AF2 148-342 (Homo sapiens, UniProt P26368)
# UniProt P26368, sequence (whole entry, looked up): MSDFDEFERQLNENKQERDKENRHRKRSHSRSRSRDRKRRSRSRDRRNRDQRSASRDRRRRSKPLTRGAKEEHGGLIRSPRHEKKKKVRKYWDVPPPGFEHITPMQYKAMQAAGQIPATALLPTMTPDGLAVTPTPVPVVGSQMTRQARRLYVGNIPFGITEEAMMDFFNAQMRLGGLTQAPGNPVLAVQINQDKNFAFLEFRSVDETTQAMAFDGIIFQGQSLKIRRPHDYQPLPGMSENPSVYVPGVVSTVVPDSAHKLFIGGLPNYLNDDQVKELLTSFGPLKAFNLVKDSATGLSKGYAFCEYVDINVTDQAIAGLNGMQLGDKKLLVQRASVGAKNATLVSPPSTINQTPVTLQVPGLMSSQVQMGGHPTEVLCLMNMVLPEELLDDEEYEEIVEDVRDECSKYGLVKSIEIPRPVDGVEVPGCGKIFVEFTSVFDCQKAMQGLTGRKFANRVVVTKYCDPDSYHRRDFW
Substance,target or system,assay,test system,setting,scale,quantity,value
durvalumab,,,"human, plasma","intravenous, 1500 mg, cycle 4 day 1, geometric mean, with: adavosertib 250 mg once daily",,Cmax,470 µg/mL
CUUUUUAUG (ssRNA),U2AF2,sequencing of bound RNA,RNA,motif only,,Kd,0.67 µM
ACDDQNPWRAYLDLLFPTDTLLLDLLW,,ex vivo fluorescence imaging,"peptide, BALB/c mice, 4T1 tumour-bearing, muscle","intravenous, 5 nmol, 48 h post-injection",higher = more uptake,mean fluorescence intensity,201 ± 13.3 a.u.
human histone deacetylase 1,PP6C (human),"co-immunoprecipitation, IP-MS",CYB5R4 knockout cells,concentration not given,reference: CYB5R4 knockout over parental,log2 fold change,-0.37
human ME2 E59N,,"enzyme activity, substrate",recombinant enzyme,"pH 7.4, with: no fumarate",,K0.5,19 ± 2.77 mM
UAUUUUCCC (ssRNA),U2AF2,sequencing of bound RNA,RNA,motif only,,Kd,1.77 µM
insulin icodec,,,"human mild hepatic impairment, serum","subcutaneous, 1.5 U/kg single dose",reference: normal hepatic function,AUC(0-inf) increase,13%
ACEEQNPWARYLEWLFPTETLLLEL,,ex vivo fluorescence imaging,"peptide, BALB/c mice, 4T1 tumour-bearing, muscle","intravenous, 5 nmol, 2 h post-injection",higher = more uptake,mean fluorescence intensity,1150 ± 127 a.u.
insulin icodec,,"log-log regression of Cmax,ss vs dose","Chinese type 2 diabetes patients, serum","subcutaneous, once weekly",,dose-proportionality slope,0.85
human ME2 P78D,,"enzyme activity, substrate",recombinant enzyme,"pH 7.4, with: fumarate 3 mM",,K0.5,4.56 ± 0.14 mM
insulin,,ELISA,"Sprague-Dawley rat, serum","subcutaneous, 5 IU/kg",,time to return to lowest serum level,4 h
Malic enzyme 2 S106K (human),,"enzyme activity, substrate",recombinant enzyme,"pH 7.4, with: fumarate 3 mM",,K0.5,4.04 ± 0.1 mM
insulin degludec,,,human,"subcutaneous, 0.4 IU/kg, 2 FC level, single dose, reference formulation",,"Tmax, median",10 h
insulin,,,gestational diabetes women,"dose not given, treated arm",,adverse event incidence,16%
pegcetacoplan,,item: ear and labyrinth disorders,patients with PNH,"dose not given, phase Ib trial",,number of TEAEs,1
adrenomedullin,,RP-HPLC,HALO C18 column,"25 µM, acetic acid/acetonitrile, 25 min gradient",,retention time,7.44 min
insulin icodec,,,Japanese patients with type 1 diabetes,log AUCτ vs log dose,,dose-proportionality slope,1.17
insulin,,LC-MS/MS,prepared human sample,"one freeze-thaw cycle, low pool",,concentration,0.00033 µg/mL
Neuropeptide Y,,RP-HPLC,HALO Peptide ES-C18 column,"25 µM, acetic acid/methanol, 10 min gradient",,retention time,10 min
insulin aspart,,ELISA,"human, younger adults with type 1 diabetes, serum","subcutaneous, 0.2 U/kg",,Cmax,0.306 nM
liraglutide,,,"Wistar rat, female, diet-induced obese, blood, fasted","subcutaneous, dose not given, after 4 weeks treatment",,serum ALT,24 ± 1.8 U/L
rituximab,,,relapsed iNHL patients,"dose not given, after third infusion",,serum concentration,324 µg/mL
human ME2 Q51H,,"enzyme activity, substrate",recombinant enzyme,"pH 7.4, with: fumarate 3 mM",,K0.5,2.71 ± 0.18 mM
ACEQNPIYWARYADWLFTTPLLLLDLALLVDADEGT,,ex vivo fluorescence imaging,"peptide, BALB/c mice, 4T1 tumour-bearing, muscle","intravenous, 5 nmol, 48 h post-injection",higher = more uptake,mean fluorescence intensity,194 ± 18.1 a.u.
Malic enzyme 2 S121Q (human),,"enzyme activity, substrate",recombinant enzyme,"pH 7.4, with: no fumarate",,K0.5,9.44 ± 0.31 mM
human RGPD3,CYB5R4 knockout human cells,"PP6 interaction, 3xFLAG-PP6C IP-MS",,concentration not given,reference: CYB5R4 KO over parental,log2 fold change,0.66
